Results from different studies.
Compare with care: the assays were run in different laboratories. Several values in a cell are separate wells, animals, samples, runs or records. ± marks the error that the study gave. Values after ≈ are worked out from the molar mass of the structure shown.

CCn1c(=O)c(-c2cc[nH]n2)cc2c(C)nc(N)nc21  viral titre (Echovirus 11; viral replication; HeLa; concentration not given, 20 h): decreased
C=C[C@]1(C)C[C@@H](OC(=O)CSCCN(CC)CC)[C@]2(C)[C@H](C)CC[C@]3(CCC(=O)[C@H]32)[C@@H](C)[C@@H]1O  lung mycoplasma count (Mycoplasma gallisepticum; infected chickens, lung; oral, 40 mg/kg): 3.63 log10 CFU/mL and 3.42 log10 CFU/mL and 3.69 log10 CFU/mL and 3.23 log10 CFU/mL and 3.02 log10 CFU/mL and 3.31 log10 CFU/mL and 3.17 log10 CFU/mL and 3.11 log10 CFU/mL
COC[C@H]1O[C@@H]2O[C@H]3[C@H](OC)[C@@H](OC)[C@@H](O[C@H]4[C@H](OC)[C@@H](OC)[C@@H](O[C@H]5[C@H](OC)[C@@H](OC)[C@@H](O[C@H]6[C@H](OC)[C@@H](OC)[C@@H](O[C@H]7[C@H](OC)[C@@H](OC)[C@@H](O[C@H]8[C@H](OC)[C@@H](OC)[C@@H](O[C@H]1[C@H](OC)[C@H]2OC)O[C@@H]8COC)O[C@@H]7COC)O[C@@H]6COC)O[C@@H]5COC)O[C@@H]4COC)O[C@@H]3COC  bioluminescence (Escherichia coli; LuxR reporter, agonist; DH5α sensor strain; 20 µM): 772 ± 168 RLU
CC(=O)N1CCC(C(=O)N2CCN3C(=O)c4cc(-c5ccccc5)ccc4NC(=O)C3C2)CC1 (stereo not shown)  mean lifespan (Caenorhabditis elegans; N2; 50 µM): 26.5 days
COc1cc2cc(CNCCN3CCN(C)CC3)c(SCc3ccccc3)nc2c(OC)c1OC  inhibition (Acinetobacter baumannii; NADH-driven proton pumping, ACMA quenching; inverted membrane vesicles; 32 µg/mL): 74%
COC(=O)[C@H](Cc1c[nH]c2ccccc12)NCc1cc2ccccc2nc1SC  growth (Pseudomonas aeruginosa; 16 µg/mL, together with: pentamidine 50 µM; relative to: control): 86.1%
c1ccc(CSc2nc3ccc(-c4ccccc4)cc3cc2CNCCC2CCN(C3CCCC3)CC2)cc1  inhibition (Acinetobacter baumannii; NADH-driven proton pumping, ACMA quenching; inverted membrane vesicles; 2 µg/mL): 7%
CN[C@H](CC(C)C)C(=O)N[C@H]1C(=O)N[C@@H](CC(N)=O)C(=O)N[C@H]2C(=O)N[C@H]3C(=O)N[C@H](C(=O)N[C@H](C(=O)O)c4cc(O)cc(O)c4-c4cc3ccc4O)[C@H](O)c3ccc(c(Cl)c3)Oc3cc2cc(c3O[C@@H]2O[C@H](CO)[C@@H](O)[C@H](O)[C@H]2O[C@H]2C[C@](C)(N)[C@H](O)[C@H](C)O2)Oc2ccc(cc2Cl)[C@H]1O  MBC (Streptococcus pyogenes; ATCC 19615; 1 strain): 1 µg/mL (≈ 0.69 µM)
Brc1ccc2nc(SCc3ccccc3)c(CNCCC3CCN(C4CCCC4)CC3)cc2c1  inhibition (Acinetobacter baumannii; NADH-driven proton pumping, ACMA quenching; inverted membrane vesicles; 32 µg/mL): 87%
N=C(N)c1ccc(OCc2cc(COc3ccc(C(=N)N)cc3)cc(-c3ccccc3)c2)cc1  MIC in combination (Escherichia coli; ATCC 25922; concentration not given, together with: rifampicin): 3.13 µg/mL
CC[C@H]1OC(=O)[C@H](C)[C@@H](O[C@H]2C[C@@](C)(OC)[C@@H](O)[C@H](C)O2)[C@H](C)[C@@H](O[C@@H]2O[C@H](C)C[C@H](N(C)C)[C@H]2O)[C@](C)(O)C[C@@H](C)/C(=N\OCOCCOC)[C@H](C)[C@@H](O)[C@]1(C)O  MIC50 (Enterococcus faecium; agar dilution; vancomycin-susceptible, 64 isolates): 64 µg/mL (≈ 76.5 µM)
CC1(F)CN(C(=O)Cn2c(=O)c(C(=O)NCc3ccc(Cl)cc3)cc3nc(N4CCNC4=O)cnc32)C1  EC50 (herpes simplex virus 2; viral cytopathic effect; Vero, G; 120 h): 850 nM
CC(=O)Oc1ccccc1C(=O)Nc1ncc([N+](=O)[O-])s1  parasite number (Cryptosporidium parvum; HCT-8; 3 x EC90, 0 h; relative to: DMSO control): 93.3% and 109% and 101% and 96.8%
CNC(C)C1CCC(N)C(OC2C(N)CC(N)C(OC3OCC(C)(O)C(NC)C3O)C2O)O1 (stereo not shown)  MIC (Salmonella enterica serovar Uganda; broth microdilution; clinical isolate RKI-No 206/14): > 8 µg/mL
C=C[C@]1(C)C[C@@H](OC(=O)CS[C@@H]2C[C@H]3CC[C@@H](C2)N3C)[C@]2(C)[C@H](C)CC[C@]3(CCC(=O)[C@H]32)[C@@H](C)[C@@H]1O  MIC50 (Enterococcus faecium; agar dilution; vancomycin-intermediate, 25 isolates): 64 µg/mL (≈ 124 µM)
Nc1ccn([C@H]2CC[C@@H](CO)O2)c(=O)n1  IC50 (Human immunodeficiency virus 1; viral replication, p24 ELISA; PHA-stimulated PBMC, NL4-3, CXCR4-tropic; 7 days): 12 ± 3 nM
CCOC(=O)c1c(C)nc(NCCCNc2ccnc3cc(Cl)ccc23)nc1-c1ccccc1  EC50 (feline herpesvirus; viral replication; CRFK): > 4000 nM
COc1cc2c(cc1C(=O)Nc1ccc(C(C)(C)C#N)cc1)CCCCC2  EC90 (Dengue virus 2; viral replication; HEK293): 600 nM
N=C(N)c1ccc(OCCC(CCOc2ccc(C(=N)N)cc2)c2ccccc2)cc1 (stereo not shown)  MIC of compound in combination (Escherichia coli; checkerboard; mcr-1 polymyxin-resistant; concentration not given, 20 h, together with: rifampicin): 12.5 µg/mL
CC(C)n1ncc2c(C(=O)NCC3(C)CNC3)cc(C3CC3)nc21  cell protection (Enterovirus D68; cytopathic effect; RD, US/IL/14-18952; 150 nM): 1.22% and 0% and -0.541%
C[C@@H](O)[C@H]1C(=O)N2C(C(=O)O)=C(SCCN=CN)C[C@H]12  bacterial load (Acinetobacter baumannii; 0403, female ICR mice, peritonitis, blood; dose not given): 2.52 log CFU and 0 log CFU
CC1=CC(=O)CC(C)(C)[C@@]1(O)/C=C/C(C)=C\C(=O)O  number of germinated seeds (Arabidopsis thaliana; Col-0 wild type, seeds; 1 µM): 9 and 7 and 6
COc1cc(C#CC(=O)c2ccccc2)ccc1O  mRNA level (Pseudomonas aeruginosa; RT-qPCR, refers to: lasB; biofilm cells; 10 µM, 24 h; relative to: untreated): 21%
CC1=C[C@H](O/C=C2/C(=O)O[C@@H]3c4ccccc4C[C@H]23)OC1=O (racemic)  hypocotyl length (Arabidopsis thaliana; atd14-1 mutant; 1 µM, racemate, compound alone): 5.83 mm and 6.23 mm
C[C@]12CC[C@@H]3c4ccc(O)cc4CC[C@H]3[C@@H]1CC[C@@H]2O  mRNA level (Arabidopsis thaliana; qRT-PCR, refers to: RD29B; estradiol-inducible CLE5 line, seedlings; 1 µM, β-estradiol induced, unit not given; relative to: mock): 39.4 and 35.7 and 36.9 and 24.8 and 28.7 and 32.9
C[C@@H]1[C@H](O)[C@@H](C)/C=C/C=C/C=C/C=C/C=C/C=C/C=C/[C@H](O[C@@H]2O[C@H](C)[C@@H](O)[C@H](N)[C@@H]2O)C[C@@H]2O[C@](O)(C[C@@H](O)C[C@@H](O)[C@H](O)CC[C@@H](O)C[C@@H](O)CC(=O)O[C@H]1C)C[C@H](O)[C@H]2C(=O)O  biofilm mass reduction (Aspergillus fumigatus; XTT, preformed biofilm; Af 293; 2 × MIC, 24 h): 65 to 68%
COC(=O)[C@H](Cc1c[nH]c2ccccc12)NCc1cc2ccccc2nc1OC  growth (Pseudomonas aeruginosa; 4 µg/mL, without pentamidine; relative to: control): 96.8%
Cc1nc(NCCNc2ccnc3cc(Cl)ccc23)nc(-c2ccccc2[N+](=O)[O-])c1C(=O)OC(C)C  EC50 (feline herpesvirus; viral replication; CRFK): > 100000 nM
CC(=O)NC[C@H]1CN(c2ccc(N3CCOCC3)c(F)c2)C(=O)O1  MBC (Staphylococcus epidermidis; broth microdilution; methicillin-resistant isolates): 32 µg/mL (≈ 94.9 µM)
Cc1cc(OC(C)C)ccc1C(=O)C(C)(C)NC(=O)c1sccc1C  inhibition (Botrytis cinerea; appressorium formation; B05.10; 1 µg/mL): 99.6 ± 0.7%
Cc1c(CN(C)C(=O)/C=C/c2cnc3c(c2)CC(NC(=O)OC(C)(C)C)C(=O)N3)oc2ccccc12 (stereo not shown)  MIC (Acinetobacter baumannii; broth microdilution; AR-0311): > 32 µg/mL
CC1(C)S[C@@H]2[C@H](NC(=O)[C@H](N)c3ccccc3)C(=O)N2[C@H]1C(=O)O  MIC50 (Streptococcus agalactiae; 25 clinical isolates): 1 µg/mL (≈ 2.86 µM)
O=C(N1CCc2ccccc21)n1ccnn1  hypocotyl length (Arabidopsis thaliana; atd14-1 mutant, seedlings; 5 µM, continuous red light, together with: 1 µM (±)-GR24): 2.94 mm and 2.11 mm and 2.18 mm and 1.71 mm and 1.99 mm and 2.84 mm
CN[C@H](CC(C)C)C(=O)N[C@H]1C(=O)N[C@@H](CC(N)=O)C(=O)N[C@H]2C(=O)N[C@H]3C(=O)N[C@H](C(=O)N[C@H](C(=O)O)c4cc(O)cc(O)c4-c4cc3ccc4O)[C@H](O)c3ccc(c(Cl)c3)Oc3cc2cc(c3O[C@@H]2O[C@H](CO)[C@@H](O)[C@H](O)[C@H]2O[C@H]2C[C@](C)(N)[C@H](O)[C@H](C)O2)Oc2ccc(cc2Cl)[C@H]1O  MIC90 (Enterococcus faecium; agar dilution; compound-intermediate isolates): 8 µg/mL (≈ 5.52 µM)
Cc1nc2[nH]c(=O)n(O)c(=O)c2s1  inhibition (Echinochloa crus-galli; glasshouse pot; 750 g/ha, 21 days, pre-emergence): 0%
Nc1nc(-c2ccccc2)nc2[nH]nc(Nc3ccc(C(F)(F)F)cc3)c12  clinical score (coxsackievirus B3; 31-1-93, NMRI mice, CVB3 chronic myocarditis; oral, 100 mg/kg twice daily, day 1, dosed days 1 to 7, score scale 0 to 7; direction not given): 0
COC(=O)[C@@H](CCSC)NCc1cc2ccccc2nc1SC  growth (Pseudomonas aeruginosa; 16 µg/mL, together with: pentamidine 50 µM; relative to: control): 95.2%
